Published values of several laboratories.
Numbered parts are unrelated; each lists some results of a single study.

Set 1
Target: Phosphate system positive regulatory protein PHO4, full length, GST-tagged (PHO4, Saccharomyces cerevisiae, UniProt P07270, residues 1-312)
Technique: competition protein-binding microarray
Form: double-stranded DNA, one strand shown
Medium: in vitro
Concentration: 2 µM
Notes: whole 60-bp probe, lowest competitor level
Together with: Cbf1 competitor, 0.05 µM
Reading: higher = stronger binding
Shared flanks, not repeated: … GTCTTGATTCGCTTGACGCTGCTG
Target sequence (chain): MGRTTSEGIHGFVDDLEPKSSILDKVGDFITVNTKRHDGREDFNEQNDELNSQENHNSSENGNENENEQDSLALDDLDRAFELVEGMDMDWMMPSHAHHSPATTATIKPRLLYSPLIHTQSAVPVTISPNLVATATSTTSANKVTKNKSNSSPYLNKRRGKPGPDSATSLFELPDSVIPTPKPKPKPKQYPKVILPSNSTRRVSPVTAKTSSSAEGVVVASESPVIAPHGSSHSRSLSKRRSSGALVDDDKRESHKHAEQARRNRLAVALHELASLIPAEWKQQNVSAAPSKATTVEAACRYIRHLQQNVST
| Strand | fluorescence intensity [a.u.] |
| --- | --- |
| TGATGTGGTTTCTACAGCTGGGTATTCACAATAAAA | 3080 |
| AATAGGCTTTGCCTACACGTGACTCGTATTTGGTGT | 13500 |
| AAATTACTAAGTTGACACGTGTTTTACCCCGTATGA | 20000 |
| CTAACGAAGGTTTGTGGAGTGGGTGACAAGCCAAGT | 3840 |
| TGAAGAAGGGTAAATCTCGTGATGGAAATGTTCCTG | 6530 |
| TTACAAATGGTTCAGATCATGCAGATGCAGCACTTG | 5170 |
| CTTTCCCGATCTTGCTCAGTGGGTGTAGCACATTTG | 4460 |
| GAGCAAGTTTCTTCACGTGTGACGCTGGCACATTAG | 12900 |

Set 2
Target: Max-binding protein MNT, bHLH-zipper, MAX partner unstated (MNT, Homo sapiens, UniProt Q99583, residues 220-300)
Technique: protein-binding microarray
Form: double-stranded DNA, one strand shown
Medium: in vitro
Concentration: not given
Notes: k-mer, scored over probes, only values ≥0.25
Reading: higher = stronger binding
Target sequence (chain): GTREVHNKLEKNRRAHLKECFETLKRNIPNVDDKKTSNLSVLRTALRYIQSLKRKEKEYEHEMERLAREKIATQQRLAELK
| Strand | E-score |
| --- | --- |
| CACGCCTA | 0.289 |
| CGACGGGC | 0.304 |
| CGTGACTA | 0.38 |
| ACGTGACG | 0.395 |
| AGCATGAT | 0.301 |

Set 3
Organism: Vesicular stomatitis virus
Read-out: pseudovirus infection
Technique: FDA-approved drug library screen
Concentration: concentration not given
Notes: SARS-CoV-2 spike pseudotype
Reference: vehicle
| SMILES | GFP-positive cells [%] |
| --- | --- |
| CC(C)NCC(O)COc1ccc(COCCOC(C)C)cc1.CC(C)NCC(O)COc1ccc(COCCOC(C)C)cc1.O=C(O)/C=C/C(=O)O (racemic) | 105 |
| C[C@@H](Oc1cc(-c2cnn(C3CCNCC3)c2)cnc1N)c1c(Cl)ccc(F)c1Cl | 13.2 |
| Cc1nc2n(c(=O)c1CCN1CCC(c3noc4cc(F)ccc34)CC1)CCCC2 | 108 |

Set 4
Target: Replicase polyprotein 1ab, nsp13 helicase (rep, Severe acute respiratory syndrome coronavirus 2, UniProt P0DTD1)
Mode: inhibitor
Concentration: 20 µM
| SMILES | inhibition |
| --- | --- |
| Cc1cccc(Cc2c[nH]cn2)c1C | 5.3% |
| Cc1ccnc2c1CCCC2C(N)=S (stereo not shown) | 6.69% |
| c1ccc2c(c1)CCC[C@H]2Nc1nc2ccccc2[nH]1 | -0.32% |
| COc1ccc(Cl)c(Nc2nc3ccccc3nc2NS(=O)(=O)c2cccc(NC(=O)C(C)(C)N)c2)c1 | 5.26% |
| Cc1ccc(CCCO)c(NCc2ccc3nc(NCCCN4CCOCC4)n(Cc4nc(C)ccc4O)c3c2)c1 | 6.47% |
| CCC(CC)(NC(=O)C(C)C)C(=O)N[C@@H](CCCN=C(N)N)C(=O)NC1(C(=O)NC(c2ccc(F)cc2)c2ccc(F)cc2)CCCC1 | 10.4% |
| C=CCNC(=O)c1cc([N+](=O)[O-])cc2c(=O)[nH]c(Nc3ccc(Cl)c(Cl)c3)nc12 | 3.54% |
| Cn1c(Nc2ccc(C(F)(F)F)cc2)nc2cc(Oc3ccnc(-c4ncc(C(F)(F)F)[nH]4)c3)ccc21 | 2.14% |
| CN(C)CCC=C1c2ccccc2C=Cc2ccccc21 | 0.79% |
| COc1cc(C)[nH]c(=O)c1CNC(=O)c1c(C)n([C@H](C)C2CCOCC2)c2ccccc12 | -0.35% |
| Cc1c(-c2ccnn2C)cc(C(=O)NCc2ccc(S(C)(=O)=O)cn2)c(=O)n1-c1cccc(C(F)(F)F)c1 | -0.97% |
| CCc1cc(O)c(Oc2ccc(C(N)=O)cc2F)cc1F | 4.14% |
| c1ccc(CCCCN2CCC(c3ccccc3)CC2)cc1 | 2.76% |
| CCc1c(-c2ccccc2)c(-c2ccccc2)nn1-c1ccccc1-c1cccc(OCC(=O)O)c1 | 40.9% |
| CC1(C)S[C@@H]2[C@H](NC(=O)[C@H](N)c3ccc(O)cc3)C(=O)N2[C@H]1C(=O)O | -0.28% |
| NCC(=O)CCC(=O)O | 6.93% |
| C=C1CC[C@H](O)C/C1=C/C=C1\CCC[C@]2(C)[C@@H]([C@H](C)CCCC(C)C)CC[C@@H]12 | -12% |
| CCN(CC)CC(=O)Nc1c(C)cccc1C | -3.3% |
| Nc1nccc(Oc2ccc(NC(=O)c3c[nH]cc(-c4ccc(F)cc4)c3=O)cc2F)c1Cl | 4.01% |
| Cc1nc(NC(=O)N2CCC[C@H]2C(N)=O)sc1-c1ccnc(C(C)(C)C(F)(F)F)c1 | -2.71% |
| CSCC[C@H](NC(=O)[C@H](CC(C)C)NC(=O)[C@@H](Cc1c[nH]c2ccccc12)NC(=O)[C@H](Cc1ccccc1)N(C)C(=O)[C@@H](Cc1c[nH]c2ccccc12)NC(=O)[C@@H](N)CCCN=C(N)N)C(N)=O | 1.19% |
| COC(=O)c1ccccc1-c1c2ccc(=N)cc-2oc2cc(N)ccc12 | -144% |
| COc1ccc(C(=O)Nc2c(Cl)cncc2Cl)cc1OC1CCCC1 | 4.98% |
| Cc1cc(OI)c(C(C)C)cc1-c1cc(C(C)C)c(OI)cc1C | 5.21% |
| CC(=O)N[C@H](Cc1ccc2ccccc2c1)C(=O)N[C@H](Cc1ccc(Cl)cc1)C(=O)N[C@H](Cc1cccnc1)C(=O)N[C@@H](CO)C(=O)N[C@@H](Cc1ccc(O)cc1)C(=O)N[C@H](CCCNC(N)=O)C(=O)N[C@@H](CC(C)C)C(=O)N[C@@H](CCCNC(=N)N)C(=O)N1CCC[C@H]1C(=O)N[C@H](C)C(N)=O | 9.54% |

Set 5
Organism: SARS-CoV-2
Read-out: cytopathic effect
Cells: Vero E6
Concentration: 10 µM
| SMILES | inhibition [%] |
| --- | --- |
| COc1cccc(C(=O)CCN[C@@H](C)[C@H](O)c2ccccc2)c1 | 1.3 |
| O=NN(CCCl)C(=O)NC1CCCCC1 | 3 |
| CC(=O)O/N=C1\C(=O)N(Cc2cc(Cl)ccc2Cl)c2ccc(Cl)cc21 | 3.6 |

Set 6
Target: Histone acetyltransferase KAT6A, winged helix 2, GST fusion (KAT6A, Homo sapiens, UniProt Q92794, residues 85-181)
Technique: protein binding microarray
Form: double-stranded DNA, one strand shown
Medium: in vitro
Concentration: not given
Notes: 8-mer, flanks averaged, mean of 2 arrays, mostly near background
Reference: not given
Reading: higher = stronger binding
Target sequence (chain): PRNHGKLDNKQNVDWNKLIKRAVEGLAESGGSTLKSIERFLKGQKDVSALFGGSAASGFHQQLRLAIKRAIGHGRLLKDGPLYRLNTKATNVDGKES
| Strand | E-score |
| --- | --- |
| AGAAGCTG | -0.00445 |
| AAGATATC | 0.0479 |
| CAAAGGCC | -0.022 |
| AGGGTAAT | -0.116 |
| GATGCTGC | 0.027 |
| CGCAATAC | 0.13 |
| AAAAGACC | -0.144 |
| TCCTAGAA | -0.119 |

Some of these lines once more (set 4):
| SMILES | inhibition |
| --- | --- |
| C=CCNC(=O)c1cc([N+](=O)[O-])cc2c(=O)[nH]c(Nc3ccc(Cl)c(Cl)c3)nc12 | 3.54% |
| Cn1c(Nc2ccc(C(F)(F)F)cc2)nc2cc(Oc3ccnc(-c4ncc(C(F)(F)F)[nH]4)c3)ccc21 | 2.14% |
| CN(C)CCC=C1c2ccccc2C=Cc2ccccc21 | 0.79% |
| COc1cc(C)[nH]c(=O)c1CNC(=O)c1c(C)n([C@H](C)C2CCOCC2)c2ccccc12 | -0.35% |
| Cc1c(-c2ccnn2C)cc(C(=O)NCc2ccc(S(C)(=O)=O)cn2)c(=O)n1-c1cccc(C(F)(F)F)c1 | -0.97% |
